Results from different studies.
Protocols differ between the studies behind these lines. ± marks the error that the study gave.
ERBB2: Receptor tyrosine-protein kinase erbB-2 (ERBB2, Homo sapiens, UniProt P04626)
uncharacterized protein residues 23-253: uncharacterized protein, residues 23-253 (Pseudomonas aeruginosa, UniProt Q9HYX8)
UniProt P16885, sequence (whole entry, looked up): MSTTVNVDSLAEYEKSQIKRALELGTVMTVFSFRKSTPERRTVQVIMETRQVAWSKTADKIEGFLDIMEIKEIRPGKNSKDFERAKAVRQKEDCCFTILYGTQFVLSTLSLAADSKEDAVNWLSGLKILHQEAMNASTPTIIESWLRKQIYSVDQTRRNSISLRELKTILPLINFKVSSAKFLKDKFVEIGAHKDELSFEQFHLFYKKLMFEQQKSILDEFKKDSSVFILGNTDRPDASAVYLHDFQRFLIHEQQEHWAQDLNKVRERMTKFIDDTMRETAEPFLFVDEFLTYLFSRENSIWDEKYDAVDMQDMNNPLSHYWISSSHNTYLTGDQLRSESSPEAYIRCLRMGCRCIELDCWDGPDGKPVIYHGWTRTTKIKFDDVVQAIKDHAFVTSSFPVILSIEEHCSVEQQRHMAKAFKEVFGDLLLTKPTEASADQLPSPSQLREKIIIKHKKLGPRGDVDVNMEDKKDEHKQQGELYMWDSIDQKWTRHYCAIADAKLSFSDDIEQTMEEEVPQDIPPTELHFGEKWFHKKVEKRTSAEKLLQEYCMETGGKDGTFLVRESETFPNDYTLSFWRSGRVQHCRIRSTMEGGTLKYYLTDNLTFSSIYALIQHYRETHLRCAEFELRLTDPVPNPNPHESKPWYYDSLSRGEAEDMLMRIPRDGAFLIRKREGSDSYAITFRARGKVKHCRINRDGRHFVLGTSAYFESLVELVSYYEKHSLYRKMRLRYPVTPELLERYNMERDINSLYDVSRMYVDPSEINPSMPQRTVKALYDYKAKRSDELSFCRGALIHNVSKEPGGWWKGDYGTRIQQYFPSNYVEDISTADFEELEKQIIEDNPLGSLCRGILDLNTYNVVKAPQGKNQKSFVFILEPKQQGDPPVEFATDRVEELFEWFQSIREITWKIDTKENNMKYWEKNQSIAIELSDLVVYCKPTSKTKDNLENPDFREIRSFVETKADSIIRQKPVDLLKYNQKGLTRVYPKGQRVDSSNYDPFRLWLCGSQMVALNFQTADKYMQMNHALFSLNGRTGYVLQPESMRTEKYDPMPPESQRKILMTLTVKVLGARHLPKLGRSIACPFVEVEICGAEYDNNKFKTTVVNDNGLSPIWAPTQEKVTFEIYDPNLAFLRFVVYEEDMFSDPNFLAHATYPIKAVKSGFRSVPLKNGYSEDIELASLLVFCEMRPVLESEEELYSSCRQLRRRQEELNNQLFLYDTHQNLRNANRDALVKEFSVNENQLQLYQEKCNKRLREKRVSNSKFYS
UniProt Q96SW2, sequence (whole entry, looked up): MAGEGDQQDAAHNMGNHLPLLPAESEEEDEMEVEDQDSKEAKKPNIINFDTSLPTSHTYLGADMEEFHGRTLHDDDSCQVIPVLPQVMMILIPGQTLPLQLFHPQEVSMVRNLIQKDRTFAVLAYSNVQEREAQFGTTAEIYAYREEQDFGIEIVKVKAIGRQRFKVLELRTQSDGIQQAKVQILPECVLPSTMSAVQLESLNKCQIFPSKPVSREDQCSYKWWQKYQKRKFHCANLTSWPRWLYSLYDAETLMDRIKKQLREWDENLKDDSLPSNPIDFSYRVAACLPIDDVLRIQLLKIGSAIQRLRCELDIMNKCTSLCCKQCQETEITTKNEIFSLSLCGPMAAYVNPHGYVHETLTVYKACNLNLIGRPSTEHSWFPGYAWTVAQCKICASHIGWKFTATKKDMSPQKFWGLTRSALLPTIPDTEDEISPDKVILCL
UniProt P00811, sequence (whole entry, looked up): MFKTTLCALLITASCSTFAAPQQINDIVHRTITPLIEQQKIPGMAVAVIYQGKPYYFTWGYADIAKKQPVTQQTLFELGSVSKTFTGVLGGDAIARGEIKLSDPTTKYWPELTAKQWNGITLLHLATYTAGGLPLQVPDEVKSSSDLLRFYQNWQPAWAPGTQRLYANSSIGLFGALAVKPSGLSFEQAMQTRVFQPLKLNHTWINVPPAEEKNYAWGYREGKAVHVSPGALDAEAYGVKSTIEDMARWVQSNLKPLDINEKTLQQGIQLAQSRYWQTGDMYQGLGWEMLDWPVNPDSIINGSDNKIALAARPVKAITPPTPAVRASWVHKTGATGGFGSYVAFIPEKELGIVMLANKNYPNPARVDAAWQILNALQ
UniProt P10415, sequence (whole entry, looked up): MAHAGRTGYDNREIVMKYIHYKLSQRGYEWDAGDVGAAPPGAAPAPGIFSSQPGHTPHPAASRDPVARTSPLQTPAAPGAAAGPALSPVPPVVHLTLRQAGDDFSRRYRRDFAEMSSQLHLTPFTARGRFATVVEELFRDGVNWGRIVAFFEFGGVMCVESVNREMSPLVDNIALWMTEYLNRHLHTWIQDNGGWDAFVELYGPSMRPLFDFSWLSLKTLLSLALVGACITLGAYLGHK
UniProt O96013, sequence (whole entry, looked up): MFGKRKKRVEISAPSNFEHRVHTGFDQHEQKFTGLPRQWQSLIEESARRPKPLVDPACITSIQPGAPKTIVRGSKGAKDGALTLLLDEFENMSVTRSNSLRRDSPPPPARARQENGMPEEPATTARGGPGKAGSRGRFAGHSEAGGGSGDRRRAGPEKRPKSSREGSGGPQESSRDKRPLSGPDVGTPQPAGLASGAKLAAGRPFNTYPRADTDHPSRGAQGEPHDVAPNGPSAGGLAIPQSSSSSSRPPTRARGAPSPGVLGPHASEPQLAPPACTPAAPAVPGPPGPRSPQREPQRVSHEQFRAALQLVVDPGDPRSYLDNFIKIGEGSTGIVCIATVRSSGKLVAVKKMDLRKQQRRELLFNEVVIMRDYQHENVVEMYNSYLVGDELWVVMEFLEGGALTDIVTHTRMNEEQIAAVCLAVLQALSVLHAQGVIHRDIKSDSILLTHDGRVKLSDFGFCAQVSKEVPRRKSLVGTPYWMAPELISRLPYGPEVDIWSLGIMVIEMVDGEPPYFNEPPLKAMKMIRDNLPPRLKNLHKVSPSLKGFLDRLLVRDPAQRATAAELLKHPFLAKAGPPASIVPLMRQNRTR
UniProt P07949, sequence (whole entry, unmodified, looked up): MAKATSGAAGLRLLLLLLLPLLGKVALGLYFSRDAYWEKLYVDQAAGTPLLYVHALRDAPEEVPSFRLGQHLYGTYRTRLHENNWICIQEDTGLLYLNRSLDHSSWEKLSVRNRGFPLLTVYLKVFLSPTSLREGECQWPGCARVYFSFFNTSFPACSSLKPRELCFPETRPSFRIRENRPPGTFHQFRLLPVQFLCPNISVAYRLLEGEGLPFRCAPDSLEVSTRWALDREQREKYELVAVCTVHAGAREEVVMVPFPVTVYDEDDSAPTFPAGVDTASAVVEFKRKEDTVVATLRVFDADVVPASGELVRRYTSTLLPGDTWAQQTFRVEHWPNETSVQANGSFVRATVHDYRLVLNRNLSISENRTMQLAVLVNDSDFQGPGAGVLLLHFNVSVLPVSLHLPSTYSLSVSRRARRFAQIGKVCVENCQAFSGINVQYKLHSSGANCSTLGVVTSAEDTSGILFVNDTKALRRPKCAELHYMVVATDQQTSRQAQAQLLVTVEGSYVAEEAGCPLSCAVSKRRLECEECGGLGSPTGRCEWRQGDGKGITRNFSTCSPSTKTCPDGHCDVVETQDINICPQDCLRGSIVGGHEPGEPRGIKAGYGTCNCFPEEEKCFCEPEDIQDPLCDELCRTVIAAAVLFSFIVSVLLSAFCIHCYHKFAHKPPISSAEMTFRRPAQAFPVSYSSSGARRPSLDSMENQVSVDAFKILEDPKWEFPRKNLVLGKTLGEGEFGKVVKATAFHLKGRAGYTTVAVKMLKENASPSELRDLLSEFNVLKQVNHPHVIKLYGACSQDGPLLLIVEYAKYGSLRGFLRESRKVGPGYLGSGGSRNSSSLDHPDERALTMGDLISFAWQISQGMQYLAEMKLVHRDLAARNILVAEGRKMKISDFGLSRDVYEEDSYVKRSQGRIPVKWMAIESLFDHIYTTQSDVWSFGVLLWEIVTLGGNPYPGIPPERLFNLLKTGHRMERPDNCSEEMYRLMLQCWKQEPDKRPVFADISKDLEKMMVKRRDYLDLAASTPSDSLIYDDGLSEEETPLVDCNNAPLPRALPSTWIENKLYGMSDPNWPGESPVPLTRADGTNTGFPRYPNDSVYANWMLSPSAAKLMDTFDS
UniProt Q9NZQ7, sequence (whole entry, looked up): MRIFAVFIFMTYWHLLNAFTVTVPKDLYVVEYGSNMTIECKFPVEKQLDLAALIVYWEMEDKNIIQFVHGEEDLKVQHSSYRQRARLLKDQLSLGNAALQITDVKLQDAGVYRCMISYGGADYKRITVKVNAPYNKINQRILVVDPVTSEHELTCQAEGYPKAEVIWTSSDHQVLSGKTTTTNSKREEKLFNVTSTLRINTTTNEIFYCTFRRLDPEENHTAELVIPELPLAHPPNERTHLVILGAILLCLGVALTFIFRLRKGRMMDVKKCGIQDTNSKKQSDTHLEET
UniProt P09769, sequence (whole entry, looked up): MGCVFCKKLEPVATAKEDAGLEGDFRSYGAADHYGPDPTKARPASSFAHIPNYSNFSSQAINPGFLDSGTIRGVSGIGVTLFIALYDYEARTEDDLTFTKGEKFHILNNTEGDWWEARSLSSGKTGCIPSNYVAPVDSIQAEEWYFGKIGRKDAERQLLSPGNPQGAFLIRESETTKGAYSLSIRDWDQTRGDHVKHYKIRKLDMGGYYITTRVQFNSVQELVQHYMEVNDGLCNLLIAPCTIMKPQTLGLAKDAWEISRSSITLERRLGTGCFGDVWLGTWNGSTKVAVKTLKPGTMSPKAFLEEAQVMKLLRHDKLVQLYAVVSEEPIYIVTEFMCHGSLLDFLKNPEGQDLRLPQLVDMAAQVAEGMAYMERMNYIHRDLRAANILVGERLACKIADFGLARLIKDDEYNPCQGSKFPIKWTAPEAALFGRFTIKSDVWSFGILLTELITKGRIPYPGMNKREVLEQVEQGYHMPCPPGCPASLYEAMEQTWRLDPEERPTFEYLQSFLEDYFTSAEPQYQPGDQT

SMILES	target or system	assay	system	setting	how to read	quantity	result
CC(C)[C@H]1NC(=O)C[C@H]2/C=C/CCSSC[C@@H](NC1=O)C(=O)N[C@H](Cc1cccc3ccccc13)C(=O)NCC(=O)O2	Tyrosine-protein kinase Fgr (FGR, Homo sapiens, UniProt P09769)	enzyme activity, inhibitor	–	10 µM	–	inhibition	-2.8%
CC[C@H](C)[C@H](NC(=O)[C@H](CCCCN)NC(=O)[C@H](C)NC(=O)[C@H](CCCNC(=N)N)NC(=O)[C@H](CCCCN)NC(=O)[C@H](CCC(N)=O)NC(=O)[C@H](CCC(N)=O)NC(=O)[C@H](CC(N)=O)NC(=O)[C@@H](NC(=O)[C@H](CC(C)C)NC(=O)[C@H](CC(N)=O)NC(=O)[C@@H]1CCCN1C(=O)[C@H](CC(=O)O)NC(=O)[C@H](CC(C)C)NC(=O)[C@H](C)NC(=O)[C@H](CS)NC(=O)[C@H](CCC(=O)O)NC(=O)[C@H](Cc1c[nH]c2ccccc12)NC(=O)[C@H](Cc1ccc(O)cc1)NC(=O)[C@H](CCCNC(=N)N)NC(=O)[C@H](CC(N)=O)NC(=O)[C@H](CCCNC(=N)N)NC(=O)[C@H](CCSC)NC(=O)[C@H](CCC(=O)O)NC(=O)[C@H](CCCCN)NC(=O)[C@H](CO)NC(=O)[C@H](Cc1ccccc1)NC(C)=O)[C@@H](C)O)C(=O)N[C@@H](CCCNC(=N)N)C(=O)N[C@@H](CO)C(=O)N[C@H](C(=O)N[C@@H](Cc1ccc(O)cc1)C(=O)N[C@@H](CCC(=O)O)C(=O)N[C@@H](CCC(=O)O)C(=O)NCC(=O)N[C@@H](CCC(=O)O)C(N)=O)[C@@H](C)CC	ERBB2	binding, SPR	–	–	–	Kd	0.019 µM
O=C1NC2(CC2)COc2ncc(F)cc2[C@H]2COCCN2c2ccn3ncc1c3n2	–	–	Sprague-Dawley rat, female, ovaries	oral, 5 mg/kg/day, 4 weeks, end of treatment	–	organ-to-brain weight ratio	6.72 ± 1.28%
CC[C@@H](C)[C@@H](NC(=O)[C@@H](CCC(N)=O)NC(=O)[C@H](NC(=O)[C@H]1CCCN1C(=O)[C@H](NC(=O)[C@@H](CO)NC(=O)[C@@H](Cc1ccccc1)NC(=O)[C@H]1CCCN1C(=O)[C@@H](CCC(N)=O)NC(=O)[C@H](N)CCSC)[C@H](C)CC)C(C)C)C(=O)N[C@@H](C(=O)N[C@H](CC(C)C)C(=O)N[C@H](CCC(N)=O)C(=O)NCC(=O)N[C@H](CO)C(=O)N[C@H](CCCNC(=N)N)C(=O)N[C@H](CCCNC(=N)N)C(=O)N[C@H](CCCNC(=N)N)C(=O)N[C@H](CCC(N)=O)C(=O)NCC(=O)N[C@H](CCCNC(=N)N)C(N)=O)[C@H](C)O	Kcnma1 (Mus musculus, UniProt Q08460)	ion current, blocker, inside-out patch clamp	Xenopus oocytes	+80 mV, together with: 10 µM cytosolic Ca2+	–	Kd	4.7 µM
O=C(N[C@@H]1c2ccccc2C[C@H]1N1CCCC1)c1ccc(-c2ccnc3[nH]ccc23)nc1	Serine/threonine-protein kinase PAK 4 (PAK4, Homo sapiens, UniProt O96013)	binding, competition with immobilised ligand	–	–	–	Kd	0.17 µM
Cn1c2cccc(=O)c-2nc2ccccc21	TetR-family regulator NalD (Pseudomonas aeruginosa, UniProt Q9HY46)	binding, microscale thermophoresis	–	wild-type protein	–	Kd	31.7 µM
CC(=O)N[C@@H](CO)C(=O)N[C@@H](Cc1ccccc1)C(=O)N[C@@H](CCC(=O)O)C(=O)N[C@@H](Cc1ccccc1)C(=O)N1CC[C@@H]2C=C[C@H]3CC[C@@H](C(=O)N4CCC[C@H]4C(=O)N4CCC[C@H]4C(=O)N[C@H](C(=O)N[C@@H](CCC(=O)O)C(=O)N[C@@H](CC(=O)O)C(=O)N[C@@H](CCC(=O)O)C(=O)N[C@@H](CC(C)C)C(N)=O)[C@@H](C)O)N3C(=O)[C@H]21	Vasodilator-stimulated phosphoprotein (VASP, Homo sapiens, UniProt P50552)	binding, fluorescence	–	–	–	Kd	40 µM
C=C[C@H]1CN(Cc2ccccn2)C(=O)[C@@H]2CCC[C@H]1N2[S@@+]([O-])c1cc(Cl)cc(Cl)c1	uncharacterized protein residues 23-253	binding, competitive fluorescence polarization	–	30 min, protein 40 nM, together with: fluorescent tracer 1 nM	–	Kd	0.851 ± 0.098 µM
CC[C@H](C)[C@H](NC(=O)[C@H](CCSC)NC(=O)[C@H](CC(=O)O)NC(=O)[C@H](CCC(N)=O)NC(=O)[C@H](CC(C)C)NC(=O)[C@@H](N)CCC(=O)O)C(=O)N[C@H]1CC(=O)NC1=O	Protein cereblon, with DDB1 (CRBN, Homo sapiens, UniProt Q96SW2)	binding	–	–	–	Kd	0.0319 µM
CC12CCC(C(=O)O)(OC1=O)C2(C)C (centres unmarked)	Beta-lactamase (ampC, Escherichia coli K-12, UniProt P00811)	–	–	–	–	Kd	5800 µM
CC[C@H](C)[C@H](NC(=O)[C@H](CCCCNC(=O)CN(CCNC(=O)CN(CCNC(=O)CN(CCNC(=O)CN(CCNC(=O)[C@H](CCCNC(=N)N)NC(C)=O)C(=O)Cn1ccc(N)nc1=O)C(=O)Cn1cnc2c(=O)[nH]c(N)nc21)C(=O)Cn1cnc2c(=O)[nH]c(N)nc21)C(=O)Cn1ccc(N)nc1=O)NC(=O)[C@H](C)NC(=O)[C@H](CCCNC(=N)N)NC(=O)[C@H](CCCCN)NC(=O)[C@H](CCC(N)=O)NC(=O)[C@H](CCC(N)=O)NC(=O)[C@H](CC(N)=O)NC(=O)[C@@H](NC(=O)[C@H](CCCN)NC(=O)[C@H](CC(N)=O)NC(=O)[C@@H]1CCCN1C(=O)[C@H](CC(=O)O)NC(=O)[C@H](CC(C)C)NC(=O)[C@H](C)NC(=O)[C@H](CS)NC(=O)[C@H](CCCC(=O)NCCN(CC(=O)NCCN(CC(=O)NCCN(CC(=O)NCCN(CC(N)=O)C(=O)Cn1cnc2c(=O)[nH]c(N)nc21)C(=O)Cn1ccc(N)nc1=O)C(=O)Cn1ccc(N)nc1=O)C(=O)Cn1cnc2c(=O)[nH]c(N)nc21)NC(=O)[C@H](Cc1c[nH]c2ccccc12)NC(=O)[C@H](Cc1ccc(O)cc1)NC(=O)[C@H](CCCNC(=N)N)NC(=O)[C@H](CC(N)=O)NC(=O)[C@H](CCCNC(=N)N)NC(=O)[C@H](CC1CCCCC1)NC(=O)[C@H](CCC(=O)O)NC(=O)[C@H](CCCCN)NC(C)=O)[C@@H](C)O)C(=O)N[C@@H](CCCNC(=N)N)C(=O)N[C@@H](CO)C(=O)N[C@H](C(=O)N[C@@H](Cc1ccc(O)cc1)C(=O)N[C@@H](CCC(=O)O)C(=O)N[C@@H](CCC(=O)O)C(=O)NCC(N)=O)[C@@H](C)CC	ERBB2	binding, SPR	–	–	–	Kd	0.11 µM
C=CCN=S(=O)(c1cc(Cl)cc(Cl)c1)N1C2CCCC1C(C=C)CN(Cc1ccccn1)C2=O (centres unmarked)	uncharacterized protein residues 23-253	binding, competitive fluorescence polarization	–	30 min, protein 40 nM, together with: fluorescent tracer 1 nM	–	Kd	> 40 µM
CC[C@H](C)[C@H](NC(=O)[C@H](CC(=O)O)NC(=O)[C@H](CCCNC(=N)N)NC(=O)[C@@H](NC(=O)c1ccc2c(c1)C(=O)OC21c2ccc(N(C)C)cc2Oc2cc(N(C)C)ccc21)[C@@H](C)O)C(=O)N[C@@H](Cc1ccc(O)cc1)C(=O)N[C@@H](CCC(=O)O)C(=O)N[C@H](C(=O)N[C@@H](CC(=O)O)C(=O)N[C@@H](Cc1ccc(O)cc1)C(=O)N[C@@H](Cc1ccc(OP(=O)(O)O)cc1)C(=O)N[C@@H](CCCNC(=N)N)C(=O)N[C@@H](CCCCN)C(=O)NCC(=O)NCC(=O)N[C@@H](CCCCN)C(=O)NCC(=O)N[C@@H](CC(C)C)C(=O)N[C@@H](CC(=O)O)C(=O)O)[C@@H](C)O	1-phosphatidylinositol 4,5-bisphosphate phosphodiesterase gamma-2, SH2 domain (PLCG2, Homo sapiens, UniProt P16885)	binding	–	–	–	Kd	1.6 µM
O=C(Nc1ccccc1SSc1ccccc1NC(=O)c1ccccc1)c1ccccc1	Programmed cell death 1 ligand 1 (CD274, Homo sapiens, UniProt Q9NZQ7)	binding, SPR	–	–	–	Kd	0.0776 µM
CS(C)(=O)=Nc1ccc(-c2ccc(-c3nc4cc(O[C@@H]5CO[C@H]6[C@@H]5OC[C@H]6O)[nH]c4cc3F)cc2)cc1	Proto-oncogene tyrosine-protein kinase receptor Ret (RET, Homo sapiens, UniProt P07949, V804M)	enzyme activity, inhibitor	–	10 µM	–	inhibition	-14%
COC(=O)[C@@]1(O)C[C@H]2O[C@]1(C)n1c3ccccc3c3c4c(c5c6ccccc6n2c5c31)C(=O)NC4	Tumor necrosis factor receptor superfamily member 16 (Homo sapiens, UniProt P08138)	binding, SPR	–	–	–	Kd	0.346 µM
CNCCCC[C@H](NC(=O)[C@H](CCCNC(=N)N)NC(=O)[C@H](C)NC(=O)[C@H](C)NC(=O)[C@H](CCCCN)NC(=O)[C@@H](NC(=O)[C@H](C)NC(=O)[C@H](CC(C)C)NC(=O)[C@@H](N)CCC(N)=O)[C@@H](C)O)C(=O)N[C@@H](CO)C(=O)N[C@@H](C)C(=O)N1CCC[C@H]1C(=O)N[C@@H](C)C(=O)N[C@H](C(=O)NCC(=O)NCC(=O)N[C@H](C(N)=O)C(C)C)[C@@H](C)O	Polycomb protein Sfmbt (Sfmbt, Drosophila melanogaster, UniProt Q9VK33)	fluorescence polarization	–	pH 8.0	–	Kd	10.3 µM
COc1ccccc1-c1n[nH]c2nc(NC3CCN(C(=O)Cc4ccc(F)cc4F)CC3)ncc12	–	bead binding, competition bead pull-down, refers to: LMJF.21.1860	Leishmania donovani axenic amastigote extract	10 µM	reference: vehicle	relative abundance	0.9
CC[C@H](C)[C@H](NC(=O)[C@H](CCC(=O)O)NC(=O)[C@H](CCCNC(=N)N)NC(=O)[C@H](C)NC(=O)[C@H](Cc1c[nH]c2ccccc12)NC(=O)[C@H](CCC(N)=O)NC(=O)[C@H](CCC(=O)O)NC(=O)[C@H](CCC(=O)O)NC(=O)[C@H](CCC(=O)O)NC(=O)CNC(=O)[C@H](CCCNC(=N)N)NC(=O)CCCCCNC(=O)CCNC(=S)Nc1ccc2c(c1)C(=O)OC21c2ccc(O)cc2Oc2cc(O)ccc21)C(=O)NCC(=O)N[C@@H](C)C(=O)N[C@@H](CCC(N)=O)C(=O)N[C@@H](CC(C)C)C(=O)N[C@@H](CCCNC(=N)N)C(=O)N[C@@H](CCCNC(=N)N)C(=O)N[C@@H](CCSC)C(=O)N[C@@H](C)C(=O)N[C@@H](CC(=O)O)C(=O)N[C@@H](CC(=O)O)C(=O)N[C@@H](CC(C)C)C(=O)N[C@@H](CC(N)=O)C(=O)O	Apoptosis regulator Bcl-2 (BCL2, Homo sapiens, UniProt P10415)	binding	–	–	–	Kd	0.024 µM
CC(=O)N[C@@H](CO)C(=O)N[C@@H](Cc1ccccc1)C(=O)N[C@@H](CCC(=O)O)C(=O)N[C@@H](Cc1ccccc1Cl)C(=O)N1CCC[C@]12C=C[C@@H]1CC[C@@H](C(=O)N3CC[C@@H]4C=C[C@H]5CC[C@@H](C(=O)N[C@H](C(=O)N[C@@H](CCC(=O)O)C(=O)N[C@@H](CC(=O)O)C(=O)N[C@@H](CCC(=O)O)C(=O)N[C@@H](CC(C)C)C(N)=O)[C@@H](C)O)N5C(=O)[C@H]43)N1C2=O	Protein enabled homolog (ENAH, UniProt Q8N8S7)	binding, ITC	–	–	–	Kd	0.34 µM

For quick reference, copied from above:
SMILES	target or system	assay	system	setting	how to read	quantity	result
CC[C@H](C)[C@H](NC(=O)[C@H](CCSC)NC(=O)[C@H](CC(=O)O)NC(=O)[C@H](CCC(N)=O)NC(=O)[C@H](CC(C)C)NC(=O)[C@@H](N)CCC(=O)O)C(=O)N[C@H]1CC(=O)NC1=O	Protein cereblon, with DDB1 (CRBN, Homo sapiens, UniProt Q96SW2)	binding	–	–	–	Kd	0.0319 µM
